Results pooled from the literature.
Lines come from different studies, so protocols differ. ± marks the error that the study gave.
Grm5: Metabotropic glutamate receptor 5 (Grm5, Rattus norvegicus, UniProt P31424)
UniProt P31424, sequence (whole entry, looked up): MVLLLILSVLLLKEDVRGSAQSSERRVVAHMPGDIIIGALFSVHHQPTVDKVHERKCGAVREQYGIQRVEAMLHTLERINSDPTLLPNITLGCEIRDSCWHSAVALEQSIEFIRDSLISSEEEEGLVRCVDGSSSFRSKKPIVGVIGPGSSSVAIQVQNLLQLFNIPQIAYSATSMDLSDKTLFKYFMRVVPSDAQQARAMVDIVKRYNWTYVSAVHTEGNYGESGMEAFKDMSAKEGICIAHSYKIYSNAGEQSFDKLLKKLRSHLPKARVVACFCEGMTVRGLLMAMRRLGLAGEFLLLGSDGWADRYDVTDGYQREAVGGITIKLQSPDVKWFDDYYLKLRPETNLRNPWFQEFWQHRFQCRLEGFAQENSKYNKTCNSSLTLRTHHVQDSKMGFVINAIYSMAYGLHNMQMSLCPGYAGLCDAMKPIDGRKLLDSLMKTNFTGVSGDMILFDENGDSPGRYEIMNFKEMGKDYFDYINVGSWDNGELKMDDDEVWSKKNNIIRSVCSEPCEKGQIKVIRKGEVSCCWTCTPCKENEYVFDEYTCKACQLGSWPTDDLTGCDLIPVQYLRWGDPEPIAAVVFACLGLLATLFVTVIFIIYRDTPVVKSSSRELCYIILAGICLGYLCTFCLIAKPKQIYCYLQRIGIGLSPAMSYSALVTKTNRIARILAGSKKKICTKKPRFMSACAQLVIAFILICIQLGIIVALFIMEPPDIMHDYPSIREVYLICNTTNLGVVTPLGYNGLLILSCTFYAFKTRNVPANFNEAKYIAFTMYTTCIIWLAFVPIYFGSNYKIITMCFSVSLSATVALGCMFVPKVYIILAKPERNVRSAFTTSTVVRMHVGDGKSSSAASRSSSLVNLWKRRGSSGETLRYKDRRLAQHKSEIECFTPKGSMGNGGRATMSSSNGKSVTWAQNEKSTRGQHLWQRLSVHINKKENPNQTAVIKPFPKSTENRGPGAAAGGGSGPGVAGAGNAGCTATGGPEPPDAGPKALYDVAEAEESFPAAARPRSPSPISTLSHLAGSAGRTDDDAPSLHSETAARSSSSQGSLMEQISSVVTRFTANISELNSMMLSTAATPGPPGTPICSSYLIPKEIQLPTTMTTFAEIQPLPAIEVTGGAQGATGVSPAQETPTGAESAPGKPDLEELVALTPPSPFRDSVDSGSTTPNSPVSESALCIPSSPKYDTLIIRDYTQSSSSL

`COc1ccccc1-c1nc(Nc2nc3ccccc3o2)ncc1C#N` gave a maximal response of 0.9 ± 0.4% (Grm5; calcium mobilization, negative allosteric modulator; together with: glutamate EC80; baseline: maximal glutamate response).
For `N#Cc1cc(F)cc(C(=O)Nc2cccc(Cl)c2F)c1`, the pKB was 6.57 ± 0.18 -log M (Grm5; calcium mobilization, negative allosteric modulator; 30 min, together with: glutamate).
For `CCCCOc1ccc(C(=O)NC2CCCCC2)cc1`, the inhibition was 12 to 27% (Metabotropic glutamate receptor 5, MPEP allosteric site (Grm5, Rattus norvegicus, UniProt P31424); [3H]methoxyPEPy binding, radioligand displacement; 10 µM).
With `CCCCOc1ccc(C(=O)Nc2ccc(Cl)cn2)cc1` the potentiation was 112% (Grm5; calcium mobilization, positive allosteric modulator; HEK293; concentration not given, together with: EC20 glutamate; baseline: maximal glutamate response).
`N#Cc1cnc(Nc2nc3ccccc3o2)nc1-c1cccs1` gave a maximal response of 35 ± 10% (Grm5; calcium mobilization, negative allosteric modulator; together with: glutamate EC80; baseline: maximal glutamate response).
`CCCCOc1ccc(C(=O)Nc2ccc(F)cc2F)cc1` gave a potentiation of 92% (Grm5; calcium mobilization, positive allosteric modulator; HEK293; concentration not given, together with: EC20 glutamate; baseline: maximal glutamate response).
With `Cc1nc(C#Cc2cccnc2)cs1` the pKB was 6.97 ± 0.15 -log M (Grm5; calcium mobilization, negative allosteric modulator; 30 min, together with: glutamate).
`N#Cc1cnc(Nc2nc3ccccc3o2)nc1-c1ccc(Cl)cc1F` has a maximal response of 1.8 ± 0.5% (Grm5; calcium mobilization, negative allosteric modulator; together with: glutamate EC80; baseline: maximal glutamate response).
The pKB of `N#Cc1cnc(Nc2nc3ccccc3o2)nc1-c1ccc(F)cc1` is reported as 7.11 ± 0.28 -log M (Grm5; calcium mobilization, negative allosteric modulator; 30 min, together with: glutamate).
`Nc1cc(NC(=O)c2cccc(Cl)c2)cc(Oc2cccnc2)c1` gave a remaining activity of 1.3% (Grm5; calcium signal, antagonist; 30 µM).

A few entries again:
The pKB of `N#Cc1cnc(Nc2nc3ccccc3o2)nc1-c1ccc(F)cc1` is reported as 7.11 ± 0.28 -log M (Grm5; calcium mobilization, negative allosteric modulator; 30 min, together with: glutamate).
